Published values gathered from unrelated publications.
Lines come from different studies, so protocols differ. Several values in a cell are separate wells, animals, samples, runs or records. ± gives the spread as reported.

Structure (SMILES) | test | system | setting | scale | quantity | value
CC(=O)NCCCC[C@@H]1NC(=O)[C@H](Cc2c[nH]c3c(C)cccc23)NC(=O)[C@H]([C@@H](C)O)NC(=O)[C@H](CC(N)=O)NC(=O)[C@@H](NC(C)=O)C(C)(C)SSC(C)(C)[C@@H](C(=O)N[C@@H](Cc2ccc(OCCN)cc2)C(=O)N[C@@H](Cc2ccc3ccccc3c2)C(=O)NC2(C(=O)N[C@@H](CCC(=O)O)C(=O)N[C@@H](CC(N)=O)C(=O)N[C@@H](Cc3cccnc3)C(=O)N(C)CC(N)=O)CCOCC2)NC1=O | equilibrium dialysis | human, plasma | 1 µM |  | plasma protein binding | 49.7 ± 5.4%
CN1Cc2cc(Cl)ccc2-n2c(nnc2C2CCN(c3cccc([18F])n3)CC2)C1 |  | C57BL/6 mouse male, muscle | intravenous, 3.7 MBq, 5 min |  | tissue uptake | 3.13 ± 0.61 %ID/g
COc1ccc(CNc2ccc3c(c2)S(=O)(=O)C=C3)cc1 | flow cytometry | male C57BL/6 mice, spleen | i.p., 5 mg/kg, 8 days | reference: splenocytes | CD45+ cells | 78.4%
CC(=O)N[C@H](C(=O)N[C@@H](CCCC(=O)OC(C)(C)C)C(=O)N[C@@H](CCC1CCCCC1)C(=O)N[C@@H](CC(=O)O)C(=O)COC(=O)c1c(C)cccc1C)C(C)(C)C |  | C57BL/6N mouse, serum | concentration not given, added: LPS |  | AST | 630 U/L and 440 U/L and 432 U/L and 568 U/L and 346 U/L and 482 U/L
O=C1NC2(CC2)COc2ncc(F)cc2[C@H]2COCCN2c2ccn3ncc1c3n2 |  | Sprague-Dawley rats, female, blood | oral, 10 mg/kg/day, end of treatment, 4-week subacute toxicity |  | eosinophil percentage | 1.24 ± 0.47%
CC[C@H](C)[C@H](NC(=O)[C@H](CCCCN)NC(=O)CNC(=O)[C@H](CC(C)C)NC(=O)[C@H](Cc1ccccc1)NC(=O)[C@H](CCCCN)NC(=O)[C@H](CO)NC(=O)[C@H](Cc1ccccc1)NC(=O)[C@H](Cc1c[nH]c2ccccc12)NC(=O)[C@H](CCC(N)=O)NC(=O)[C@@H](NC(=O)[C@H](Cc1ccccc1)NC(=O)CCCCCNC(=O)CN1CCN(CC(=O)O)CCN(CC(=O)O)CCN(CC(=O)O)CC1)C(C)C)C(=O)N[C@@H](CCC(=O)O)C(=O)N1CCC[C@H]1C(=O)N[C@@H](CC(=O)O)C(=O)N[C@H](C(=O)N[C@@H](CO)C(=O)N[C@@H](CCC(N)=O)C(=O)N[C@H](C(=O)N[C@@H](CCC(N)=O)C(=O)N[C@@H](CC(=O)O)C(=O)N1CCC[C@H]1C(=O)N[C@@H](CC(N)=O)C(=O)N[C@@H](CC(=O)O)C(=O)N[C@@H](CCC(N)=O)C(=O)N[C@@H](Cc1ccc(O)cc1)C(=O)N[C@@H](CCC(=O)O)C(=O)N1CCC[C@H]1C(=O)N[C@@H](Cc1ccccc1)C(=O)O)C(C)C)C(C)C [copper-64 labelled] | dynamic PET | mouse both sexes, CT26 tumour, untreated, tumour | intravenous, 100 µCi/mouse, 750 s |  | SUVmean | 1.06 SUV
CCCCCCCCCCCCCCCC(=O)N[C@@H](CCC(=O)NCCOCCOCCC(=O)NCCOCCOCCC(=O)NCCCC[C@H](NC(=O)[C@H](CC(=O)O)NC(=O)[C@H](CC(C)C)NC(=O)[C@H](Cc1ccc(O)cc1)NC(=O)[C@H](CCCCN)NC(=O)[C@H](CO)NC(=O)[C@H](Cc1ccc(O)cc1)NC(=O)[C@H](CC(=O)O)NC(=O)[C@H](CO)NC(=O)[C@@H](NC(=O)[C@H](Cc1ccccc1)NC(=O)[C@@H](NC(=O)CNC(=O)[C@H](CCC(N)=O)NC(=O)[C@@H](CO)NC(=O)[C@@H](N)Cc1c[nH]cn1)[C@@H](C)O)[C@@H](C)O)C(=O)N[C@@H](CCCNC(=N)N)C(=O)N[C@@H](CCCNC(=N)N)C(=O)N[C@@H](C)C(=O)N[C@@H](CCC(N)=O)C(=O)N[C@@H](CC(=O)O)C(=O)N[C@@H](Cc1ccccc1)C(=O)N[C@H](C(=O)N[C@@H](CCC(N)=O)C(=O)N[C@@H](Cc1c[nH]c2ccccc12)C(=O)N[C@@H](CC(C)C)C(=O)N[C@@H](CC(C)C)C(=O)N[C@@H](CC(N)=O)C(=O)N[C@H](C(=O)NCC(=O)NCC(=O)N1CCC[C@H]1C(=O)N[C@@H](CO)C(=O)N[C@@H](CO)C(=O)NCC(=O)N[C@@H](C)C(=O)N1CCC[C@H]1C(=O)N1CCC[C@H]1C(=O)N1CCC[C@H]1C(=O)N[C@@H](CO)C(N)=O)[C@@H](C)O)C(C)C)C(=O)O | measured: CK | rhesus monkey, female | subcutaneous, 60 µg/kg once daily, 28 days |  | serum enzyme activity | 130 ± 32 U/L
C/C(=N\OCCCN1CCCCC1)c1ccc(C(F)(F)F)cc1 |  | mouse, plasma | oral, 150 mg/kg once daily, day 1 |  | AUC(0-t) | 29100 ± 2170 ng·h/mL
C#Cc1c(F)ccc2cc(O)cc(-c3ncc4c(N5CC6CCC(C5)N6C(=O)OC(C)OC(=O)C(C)C)nc(OC[C@@]56CCCN5C[C@H](F)C6)nc4c3F)c12 (stereo partly shown) | measured: prodrug | mouse whole blood | 1 µM |  | t1/2 | 14.7 min
CSCC[C@H](N)C(=O)N[C@@H](C)C(=O)N[C@@H](CCCNC(=N)N)C(=O)N[C@@H](CCCNC(=N)N)C(=O)N[C@@H](CC(=O)O)C(=O)N[C@@H](CCCCN)C(=O)N[C@H](C(=O)N[C@@H](CC(=O)O)C(=O)N[C@@H](Cc1ccccc1)C(=O)N[C@@H](C)C(=O)N[C@@H](CCCNC(=N)N)C(=O)N[C@@H](CCCNC(=N)N)C(=O)N[C@@H](CCCNC(=N)N)C(=O)N[C@@H](CCCNC(=N)N)C(=O)NCCCCCC(=O)NCCCCC(NC(=O)CCCCCNC(=O)[C@H](CCCNC(=N)N)NC(=O)[C@H](CCCNC(=N)N)NC(=O)[C@H](CCCNC(=N)N)NC(=O)[C@H](CCCNC(=N)N)NC(=O)[C@H](C)NC(=O)[C@H](Cc1ccccc1)NC(=O)[C@H](CC(=O)O)NC(=O)[C@@H](NC(=O)[C@H](CCCCN)NC(=O)[C@H](CC(=O)O)NC(=O)[C@H](CCCNC(=N)N)NC(=O)[C@H](CCCNC(=N)N)NC(=O)[C@H](C)NC(=O)[C@@H](N)CCSC)[C@@H](C)O)C(=O)NCCCCC(NC(=O)C(CCCCNC(=O)CCCCCNC(=O)[C@H](CCCNC(=N)N)NC(=O)[C@H](CCCNC(=N)N)NC(=O)[C@H](CCCNC(=N)N)NC(=O)[C@H](CCCNC(=N)N)NC(=O)[C@H](C)NC(=O)[C@H](Cc1ccccc1)NC(=O)[C@H](CC(=O)O)NC(=O)[C@@H](NC(=O)[C@H](CCCCN)NC(=O)[C@H](CC(=O)O)NC(=O)[C@H](CCCNC(=N)N)NC(=O)[C@H](CCCNC(=N)N)NC(=O)[C@H](C)NC(=O)[C@@H](N)CCSC)[C@@H](C)O)NC(=O)CCCCCNC(=O)[C@H](CCCNC(=N)N)NC(=O)[C@H](CCCNC(=N)N)NC(=O)[C@H](CCCNC(=N)N)NC(=O)[C@H](CCCNC(=N)N)NC(=O)[C@H](C)NC(=O)[C@H](Cc1ccccc1)NC(=O)[C@H](CC(=O)O)NC(=O)[C@@H](NC(=O)[C@H](CCCCN)NC(=O)[C@H](CC(=O)O)NC(=O)[C@H](CCCNC(=N)N)NC(=O)[C@H](CCCNC(=N)N)NC(=O)[C@H](C)NC(=O)[C@@H](N)CCSC)[C@@H](C)O)C(N)=O)[C@@H](C)O (stereo partly shown) |  | C57BL/6 mouse female, heart | dose not given, 3 h | reference: total | tissue distribution | 0.81% and 0.62% and 0.54%
Cc1cc(-c2ccc3ccccc3c2)nnc1NCCN1CCN(C)CC1 | metabolic stability | rat, liver microsomes |  |  | microsomal CLint | < 23.1 µL/min/mg
CC(CCC(=O)NCC(=O)O)C1CCC2C3C(O)CC4CC(OC5OC(C(=O)O)C(O)C(O)C5O)CCC4(C)C3CCC12C (stereo not shown) |  | men, C/C genotype, plasma | dose not given, geometric mean |  | plasma concentration | 392 ng/mL
O=C(c1cc(Cc2n[nH]c(=O)c3ccccc23)ccc1F)N1CC(CNC2CC2)C1 |  | female ICR mouse, plasma | oral, 60 mg/kg, solution formulation |  | oral bioavailability | 70.6%

Some of these lines once more:
Structure (SMILES) | test | system | setting | scale | quantity | value
COc1ccc(CNc2ccc3c(c2)S(=O)(=O)C=C3)cc1 | flow cytometry | male C57BL/6 mice, spleen | i.p., 5 mg/kg, 8 days | reference: splenocytes | CD45+ cells | 78.4%
CC(=O)N[C@H](C(=O)N[C@@H](CCCC(=O)OC(C)(C)C)C(=O)N[C@@H](CCC1CCCCC1)C(=O)N[C@@H](CC(=O)O)C(=O)COC(=O)c1c(C)cccc1C)C(C)(C)C |  | C57BL/6N mouse, serum | concentration not given, added: LPS |  | AST | 630 U/L and 440 U/L and 432 U/L and 568 U/L and 346 U/L and 482 U/L
